# Published values from different studies.
# Compare with care: the assays were run in different laboratories. ± gives the spread as reported.
# Sequence of UniProt P41143 (whole entry, looked up): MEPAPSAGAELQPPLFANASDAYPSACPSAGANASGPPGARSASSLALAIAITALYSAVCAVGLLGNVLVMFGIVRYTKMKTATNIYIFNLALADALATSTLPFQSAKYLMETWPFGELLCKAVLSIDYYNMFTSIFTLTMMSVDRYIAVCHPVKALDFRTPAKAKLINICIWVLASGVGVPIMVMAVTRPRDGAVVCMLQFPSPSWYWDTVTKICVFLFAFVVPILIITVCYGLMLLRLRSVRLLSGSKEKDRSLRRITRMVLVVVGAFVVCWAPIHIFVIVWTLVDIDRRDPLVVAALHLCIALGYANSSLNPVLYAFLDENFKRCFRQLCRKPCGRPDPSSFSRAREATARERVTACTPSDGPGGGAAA
# Sequence of UniProt P05177 (whole entry, looked up): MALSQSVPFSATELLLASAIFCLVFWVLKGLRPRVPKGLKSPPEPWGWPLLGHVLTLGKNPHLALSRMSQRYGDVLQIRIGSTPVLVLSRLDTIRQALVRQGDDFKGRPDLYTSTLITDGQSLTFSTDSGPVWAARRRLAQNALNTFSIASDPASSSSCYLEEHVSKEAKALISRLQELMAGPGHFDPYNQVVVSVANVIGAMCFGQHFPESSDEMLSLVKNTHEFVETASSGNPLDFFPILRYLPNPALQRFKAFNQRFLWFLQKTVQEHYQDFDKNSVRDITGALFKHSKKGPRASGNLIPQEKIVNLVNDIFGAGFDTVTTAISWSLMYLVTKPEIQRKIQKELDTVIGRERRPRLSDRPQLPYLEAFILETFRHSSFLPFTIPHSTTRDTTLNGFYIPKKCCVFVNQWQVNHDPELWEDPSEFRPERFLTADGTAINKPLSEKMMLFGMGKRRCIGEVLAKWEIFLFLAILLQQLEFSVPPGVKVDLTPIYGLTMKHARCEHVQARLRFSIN
# Sequence of UniProt P06276 (whole entry, looked up): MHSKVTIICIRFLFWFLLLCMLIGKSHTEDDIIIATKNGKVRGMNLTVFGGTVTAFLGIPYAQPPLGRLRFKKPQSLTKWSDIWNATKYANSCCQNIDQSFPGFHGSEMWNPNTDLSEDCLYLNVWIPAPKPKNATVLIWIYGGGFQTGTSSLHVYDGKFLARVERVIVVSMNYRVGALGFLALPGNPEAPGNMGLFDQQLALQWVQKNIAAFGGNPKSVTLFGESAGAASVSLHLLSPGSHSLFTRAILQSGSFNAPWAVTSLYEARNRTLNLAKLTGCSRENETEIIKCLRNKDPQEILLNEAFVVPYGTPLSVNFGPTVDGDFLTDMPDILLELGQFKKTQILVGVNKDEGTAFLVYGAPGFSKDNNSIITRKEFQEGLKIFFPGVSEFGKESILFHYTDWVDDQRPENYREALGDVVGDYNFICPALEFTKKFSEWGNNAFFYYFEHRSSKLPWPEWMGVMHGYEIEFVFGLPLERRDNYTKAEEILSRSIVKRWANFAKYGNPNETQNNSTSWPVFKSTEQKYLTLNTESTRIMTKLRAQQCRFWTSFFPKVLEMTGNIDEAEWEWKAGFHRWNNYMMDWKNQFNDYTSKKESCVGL
Substance,target or system,test,system,setting,endpoint,result
mitragynine,"Cytochrome P450 1A2 (CYP1A2, Homo sapiens, UniProt P05177)","phenacetin O-deethylation, inhibitor",human liver microsomes,,IC50,> 45000 nM
colistimethate,,dynamic light scattering,water,25 °C,critical micelle concentration,3.5 mM
retrorsine,,,human whole blood,"1000 ng/mL, 60 min, 37 °C",blood-to-plasma ratio,1.08
maraviroc,,,,,logP,4.37
deucravacitinib,,multiple ascending dose,healthy human,"oral, all doses pooled",subjects with influenza-like illness,4.4%
phoxim-oxon,"Bche (Rattus norvegicus, UniProt Q9JKC1)",inhibitor,"rat, postnatal day 1, rat serum",,IC50,2 nM
insulin,,,female C57BL/6J mice,"dose not given, endogenous, population model, with: glucose 0.35 g/kg iv",volume of distribution,13 mL
propranolol,Caco-2,,,,efflux ratio,1.2
maraviroc,,,"human, tissue","oral, 300 mg twice daily, day 7, composite of medians",Cmax,848 ng/g
semaglutide,,item: fatal outcome,"human, safety analysis set","concentration not given, 32 weeks, run-in",participants with adverse events,0%
mitragynine,,,human liver S9,,CLint,0.068 mL/min/mg protein
Ac-DEVD-CHO,"Caspase-7 (CASP7, Homo sapiens, UniProt P55210)",enzyme activity,,,Hill slope,-1.28
semaglutide,,GLP-1R CRE luciferase bioassay,"C57BL/6 mouse, male, plasma","subcutaneous, 0.4 mg/kg, 3 h, end of OGTT",plasma concentration,863 nM
SNC80,"Delta-type opioid receptor, with Gi3 (OPRD1, Homo sapiens, UniProt P41143)","Gi3 activation, agonist",,,Emax,116 ± 2%
benzalkonium bromide,"Cholinesterase (BCHE, Homo sapiens, UniProt P06276)","enzyme activity, inhibitor, fluorescence",,concentration not given,inhibition,-37.8 ± 93.5%

# Some of these lines once more:
Substance,target or system,test,system,setting,endpoint,result
phoxim-oxon,"Bche (Rattus norvegicus, UniProt Q9JKC1)",inhibitor,"rat, postnatal day 1, rat serum",,IC50,2 nM
semaglutide,,item: fatal outcome,"human, safety analysis set","concentration not given, 32 weeks, run-in",participants with adverse events,0%
